Assay results from different studies.
Numbered parts are unrelated; each lists some results of a single study. Positions count from the first letter of the parent shown.

Block 1
Target: CCNF, cyclin fold, Cln2 fusion (human)
Technique: yeast growth competition, sequencing
Medium: yeast
Setting: strong parent motif
Relative to: not given
Direction: higher = stronger binding
Starting sequence: INSM1 docking peptide (human); PKAIRKLHFEDEV
| Variant | normalised enrichment score |
| --- | --- |
| L7K | 0.975 |
| R5K | 5.31 |
| E10M | 7.47 |
| K2N | 6.89 |
| D11T | 7.08 |
| F9R | 0.116 |
| A3H | 5.73 |
| K6M | 6.83 |
| D11M | 7.56 |
| L7T | 0.217 |
| L7E | -0.0175 |
| R5S | 0.793 |
| H8S | 6.49 |

Block 2
Target: RING finger protein unkempt homolog, zinc fingers 1-6, GST-SBP tag (UNK, Homo sapiens, UniProt Q9C0B0, residues 30-357)
Technique: RNA Bind-n-Seq
Form: RNA
Medium: in vitro
Tested at: not given
Setting: RNA with constant flanks, ends assumed
Relative to: input RNA pool
Direction: higher = stronger binding
Constant ends, left off below: GGGAGUUCUACAGUCCGACGAUC … CAACAGAGGAUUGAGCAUCA
Construct (chain): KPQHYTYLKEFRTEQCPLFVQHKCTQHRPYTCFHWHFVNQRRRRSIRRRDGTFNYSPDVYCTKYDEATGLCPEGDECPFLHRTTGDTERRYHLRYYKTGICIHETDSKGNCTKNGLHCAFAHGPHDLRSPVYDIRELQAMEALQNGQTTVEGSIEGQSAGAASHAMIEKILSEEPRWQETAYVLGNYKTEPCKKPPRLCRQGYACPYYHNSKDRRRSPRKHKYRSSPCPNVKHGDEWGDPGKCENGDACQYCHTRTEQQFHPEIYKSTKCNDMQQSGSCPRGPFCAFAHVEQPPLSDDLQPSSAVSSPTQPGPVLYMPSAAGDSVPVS
| Sequence | bound/input enrichment [ratio] |
| --- | --- |
| CAGUCCUGCGUUUCCUCCCUAAAUUCUAUUUUGUUAUUUGGUUUUCUUUACUCUGGUUUUCCGUAACAGGAUCACGUAUUAAAAUUUGCUGUUAAUUAAAGUUUACCUUUUGAUUUUACA | 0.415 |
| GUUUUAAAAAUGAACUUCUCCCGCUACACAGAAGUAACAAAUAUGGUAGUCAGUUUUGUAUUCCGAAAUGUAUUGGUAGCAGGGAUGUUUUCAUAAUUUUCAGAGAUUAUGCAUUCUUCA | 0.251 |
| GUCUAUCUUAAUCUGGUGCUGGACUAUGUUCCGGAAACAGUAUACAGAGUUGCCAGACACUACCGUCGAGCCAAACAGACGCUCCCUGUGAUUUAUGUCAAGUUGUAUAUGUAUCAGCUG | 0.0485 |
| GGCUUCAGGAACAUCAUAGCAGAUCCUGUCACCUUCAAGACCAAAUCGAGCUAUGUUGCCUCCGCUACCUUGCAAGCCUACACUUCUAUGCAUCUUUUUUUCCAGUUCAAGACAACAUCC | 0.244 |
| AGGCUCAUCCAGCCCUAUAUCCACAACUACUCCUGGCUGCUCUUUGCUGCCCUGGCUCUCUACCGUGCCCACCUGACCAGUACAGAGCAGGUGGAUGGGGAGCAGCUGGACCCCCAGGCC | 0.0727 |
| AGCAAAACCAGAGCAUCCUUAAAGUGCAGGAAGUCUUUGCCGUCGUUGUUAAGCAUGUGUUUCCGUCAGGUCAGAAACAUCAGGUACCACAGCUCCCCAGCACUCUCUUGAGGCUAGAAA | 0.119 |
| UUUGUAACUUAUCUGUAAAAGGUUUCUCCCUACUGUCAAAAAAAUAUGCAUGUAUAGUAAUCCGGACUUCAUUCCUCCAUGUUUUCUUCCCUUAUCUUACUGUCAUUGUCCUAAAACCUU | 0.671 |

Block 3
Target: Histone acetyltransferase KAT6A, winged helix 1, GST fusion (KAT6A, Homo sapiens, UniProt Q92794, residues 1-85)
Technique: protein binding microarray
Form: double-stranded DNA, one strand shown
Medium: in vitro
Tested at: not given
Setting: 8-mer, flanks averaged, mean of 2 arrays, mostly near background
Relative to: not given
Direction: higher = stronger binding
Construct (chain): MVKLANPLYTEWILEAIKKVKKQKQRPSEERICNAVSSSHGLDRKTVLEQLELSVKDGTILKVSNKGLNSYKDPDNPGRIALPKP
| Sequence | E-score |
| --- | --- |
| ATGACACA | -0.14 |
| CATAGTTA | 0.0955 |
| CCATGTAA | 0.153 |
| GAGTGTGC | -0.131 |
| AACCGATT | -0.00369 |
| AAGTTCAG | -0.148 |
| GGCTAAAC | 0.0888 |
| AACAGCAA | -0.206 |
| CTCCGAGC | 0.0521 |
| GCGAAGGA | -0.00394 |
| GGCACACC | -0.0649 |
| TATCTCGA | -0.104 |
| GGGACTAC | 0.0399 |

Other studies, line by line
| Substance | target | assay | system | setting | how to read | measurement | value |
| --- | --- | --- | --- | --- | --- | --- | --- |
| PhoQ, residues 284 288 289 292 302 303 DDMDFR | PhoP, residues 12 14 15 18 19 QWHVF (Escherichia coli, UniProt P23836) | Sort-seq, measured: YFP reporter | E. coli | PhoQ-PhoP variant library, with: 10 µM Mg2+ | relative to: high Mg2+ state, higher = stronger signaling | fold induction | 0.809 |
